Experimental data from different studies.
“And” joins repeats or separate records; there may be more than shown. ± marks the error that the study gave.
Chain of UniProt P29376 (whole entry, looked up): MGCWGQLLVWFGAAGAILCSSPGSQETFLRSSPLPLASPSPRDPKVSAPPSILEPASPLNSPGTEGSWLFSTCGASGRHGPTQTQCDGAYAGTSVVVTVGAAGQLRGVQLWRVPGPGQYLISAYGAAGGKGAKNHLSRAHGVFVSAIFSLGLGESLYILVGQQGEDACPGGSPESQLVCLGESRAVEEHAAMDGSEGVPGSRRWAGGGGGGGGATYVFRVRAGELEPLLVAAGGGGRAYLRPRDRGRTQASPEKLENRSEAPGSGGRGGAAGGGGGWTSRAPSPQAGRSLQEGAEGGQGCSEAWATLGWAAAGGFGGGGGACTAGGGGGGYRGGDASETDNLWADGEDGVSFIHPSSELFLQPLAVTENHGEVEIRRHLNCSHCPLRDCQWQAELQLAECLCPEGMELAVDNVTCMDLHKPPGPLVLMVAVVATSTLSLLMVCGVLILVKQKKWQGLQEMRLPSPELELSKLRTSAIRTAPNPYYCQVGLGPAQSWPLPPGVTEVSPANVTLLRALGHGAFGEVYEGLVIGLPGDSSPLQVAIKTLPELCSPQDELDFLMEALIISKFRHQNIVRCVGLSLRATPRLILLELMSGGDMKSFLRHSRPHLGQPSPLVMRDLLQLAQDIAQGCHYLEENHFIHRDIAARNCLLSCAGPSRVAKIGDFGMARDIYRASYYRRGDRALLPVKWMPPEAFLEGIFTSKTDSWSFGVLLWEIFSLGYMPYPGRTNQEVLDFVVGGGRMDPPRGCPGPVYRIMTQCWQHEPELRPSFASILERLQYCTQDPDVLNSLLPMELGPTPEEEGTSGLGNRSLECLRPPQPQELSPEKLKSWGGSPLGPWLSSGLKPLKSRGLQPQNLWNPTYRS
Chain of UniProt P51955 (whole entry, looked up): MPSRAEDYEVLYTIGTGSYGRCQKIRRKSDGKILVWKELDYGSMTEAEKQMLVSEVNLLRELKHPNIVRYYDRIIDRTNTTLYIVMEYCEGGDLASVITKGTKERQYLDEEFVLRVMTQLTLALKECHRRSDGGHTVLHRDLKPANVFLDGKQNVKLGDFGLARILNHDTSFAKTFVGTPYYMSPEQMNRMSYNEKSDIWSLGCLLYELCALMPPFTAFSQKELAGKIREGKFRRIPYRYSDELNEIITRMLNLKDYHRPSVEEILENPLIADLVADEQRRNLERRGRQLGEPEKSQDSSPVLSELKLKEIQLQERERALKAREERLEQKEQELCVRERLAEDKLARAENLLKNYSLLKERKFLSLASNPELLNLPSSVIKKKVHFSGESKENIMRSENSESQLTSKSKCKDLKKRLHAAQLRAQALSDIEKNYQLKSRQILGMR
Chain of UniProt P22455 (whole entry, looked up): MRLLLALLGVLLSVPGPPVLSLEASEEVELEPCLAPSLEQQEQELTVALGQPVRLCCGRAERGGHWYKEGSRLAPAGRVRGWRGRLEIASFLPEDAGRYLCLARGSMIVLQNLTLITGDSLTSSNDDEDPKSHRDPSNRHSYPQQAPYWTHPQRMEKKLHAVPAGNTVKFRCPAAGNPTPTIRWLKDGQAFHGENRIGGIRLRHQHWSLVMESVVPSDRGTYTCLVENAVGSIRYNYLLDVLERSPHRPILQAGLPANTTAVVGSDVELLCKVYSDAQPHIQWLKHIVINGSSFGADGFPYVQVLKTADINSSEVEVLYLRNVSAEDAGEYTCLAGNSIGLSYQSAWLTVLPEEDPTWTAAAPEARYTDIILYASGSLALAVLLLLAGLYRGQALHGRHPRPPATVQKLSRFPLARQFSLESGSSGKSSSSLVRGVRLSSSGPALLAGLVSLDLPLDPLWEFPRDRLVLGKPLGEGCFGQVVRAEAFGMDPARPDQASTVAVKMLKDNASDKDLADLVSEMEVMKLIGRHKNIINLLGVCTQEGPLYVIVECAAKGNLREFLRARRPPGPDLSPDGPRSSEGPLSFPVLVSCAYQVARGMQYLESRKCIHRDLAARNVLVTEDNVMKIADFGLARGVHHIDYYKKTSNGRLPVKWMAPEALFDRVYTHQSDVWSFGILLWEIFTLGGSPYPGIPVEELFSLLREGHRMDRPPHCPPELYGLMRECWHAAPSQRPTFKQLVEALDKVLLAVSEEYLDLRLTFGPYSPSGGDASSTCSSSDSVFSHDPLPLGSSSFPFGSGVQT

`COc1cc(C(SC(C)C)SC(C)C)ccc1OCCNS(=O)(=O)c1ccc(Br)cc1` has an EC50 of 252 ± 2.6 µg/mL (Tobacco mosaic virus; protective activity; plant in vivo).
For `Cc1cc(C(=O)Nc2nc3cccc(C)c3n2[C@H]2CCCCN(C(=O)/C=C/CN(C)C)C2)ccn1`, “EC50 fold shift” read 0.97 fold and 1.31 fold (Trypanosoma brucei; cell growth, Alamar Blue; 2T1 overexpressing Tb927.3.690; reference: parental 2T1).
`CCSC(SCC)c1ccc(OCCNS(=O)(=O)c2ccc(C)cc2)c(OC)c1` gave an EC50 of 111 ± 4.3 µg/mL (Tobacco mosaic virus; curative activity; plant in vivo).
The TGI of `CC(C)(C)C(=O)OCOP(=O)(OCOC(=O)C(C)(C)C)C1CCCN(O)C1=O` (stereo not drawn) is reported as > 100000 nM (OVCAR-3).
The EC50 of `C[C@H](NC(=O)Cc1cc(F)cc(F)c1)C(=O)N[C@@H]1C(=O)N(C)c2ccccc2-c2ccccc21` is reported as 50 nM (dengue virus type 2; viral replication, Renilla luciferase reporter virus; Huh-7.5.1 wild-type; 48 h).
For `COc1ccccc1-c1n[nH]c2nc(N[C@H]3CC[C@H](NS(=O)(=O)CC(C)C)CC3)ncc12`, the EC50 was 1.3 ± 0.008 nM (Leishmania donovani; promastigotes, LdBOB CRK3 overexpressing).
For `O=C1NC2(CC2)COc2ncc(F)cc2[C@H]2COCCN2c2ccn3ncc1c3n2`, “organ-to-brain weight ratio” read 31.5 ± 11.9% (Sprague-Dawley rat, female, uterus; oral, 2.5 mg/kg/day, 4 weeks dosing, end of recovery).
For `CCn1cnc2c(Oc3ccc(/C=C/C(=O)c4ccc(NS(=O)(=O)c5ccccc5C)cc4)cc3)ncnc21`, the EC50 was 471.5 ± 1.4 µg/mL (tobacco mosaic virus; curative activity; in vivo plant).
The inhibition of `CC(C)[C@H]1NC(=O)C[C@H]2/C=C/CCSSC[C@@H](NC1=O)C(=O)N[C@H](Cc1cccc3ccccc13)C(=O)NCC(=O)O2` is reported as 1.3% (Leukocyte tyrosine kinase receptor (LTK, Homo sapiens, UniProt P29376); enzyme activity, inhibitor; 10 µM).
For `C[C@H](NC(=O)[C@@H](O)c1cc(F)cc(F)c1)C(=O)N[C@@H]1C(=O)N(C)c2ccccc2-c2ccccc21`, the EC50 was 2.5 nM (dengue virus type 2; viral replication, Renilla luciferase reporter virus; Raji DC-SIGN; 48 h).
The EC50 of `COc1ccc(NC(=O)N2CCCCN3[C@H](CN(C)C)[C@H](c4ccc(C#Cc5ccccc5)cc4)[C@@H]3C2)cc1` is reported as 78 nM (Toxoplasma gondii; bradyzoite growth; glutamine-induced bradyzoites).
For `CN(C)[C@H]1C[C@@]23CC[C@@]4(O2)C(=CC[C@]2(C)[C@@H](c5ccc6ccncc6c5)CC[C@H]24)C=C3[C@@H](O)[C@@H]1O`, the inhibition was 8.3% (Serine/threonine-protein kinase Nek2 (NEK2, Homo sapiens, UniProt P51955); ATP probe labelling, inhibitor, KiNativ profiling; 1 µM).
`CCC1(CC)CC(=O)N(C2c3cc(C(=O)NC4c5ccccc5CC4O)ccc3OC2(C)COC)C(=N)N1` (stereo not drawn) has an EC50 of 0.5 ± 0.1 nM (Plasmodium falciparum; parasite growth; Dd2).
The EC50 of `O=C(NNc1ccc(Cl)cc1)c1nnc(CC23CC4CC(CC(C4)C2)C3)o1` is reported as 3.4 µg/mL (Fusarium oxysporum; microbial growth).
For `CS(C)(=O)=Nc1ccc(-c2ccc(-c3nc4cc(O[C@@H]5CO[C@H]6[C@@H]5OC[C@H]6O)[nH]c4cc3F)cc2)cc1`, the inhibition was -14% (Fibroblast growth factor receptor 4 (FGFR4, Homo sapiens, UniProt P22455); enzyme activity, inhibitor; 10 µM).
`O=C(NCc1ccc(Cl)cn1)C(=O)C(Cc1ccccc1)NC(=O)C1CC(F)CN1C(=O)C(NC(=O)C1CCC(F)(F)CC1)C1CCCCC1` (stereo not drawn) gave an EC50 of 310 nM (HCoV-OC43; viral replication).
The EC50 of `CCSC(SCC)c1ccc(OCCNS(=O)(=O)c2ccc(C)cc2)cc1` is reported as 998.5 ± 2.1 µg/mL (Tobacco mosaic virus; curative activity; plant in vivo).
For `O=C(NNc1ccccc1)c1nnc(C23CC4CC(CC(C4)C2)C3)o1`, the EC50 was > 25 µg/mL (Fusarium oxysporum; microbial growth).
